Assay results gathered from unrelated publications.
Compare with care: the assays were run in different laboratories.

Structure (SMILES)	method	medium	time	pH	temperature	solubility
O=C1C(O)=C(Nc2ccccc2Cl)C(=O)c2ccccc21	–	water	12 h	–	–	0.003 mM
O=P([O-])([O-])Oc1ccc(-c2cc(=S)ss2)cc1.[Na+].[Na+]	HPLC	water	1 h	–	25 °C	2080 µg/mL
CCCCCCCc1ccc(NC(=O)CCCN[C@H](C(N)=O)[C@H](O[C@@H]2O[C@H](CN)[C@@H](O)[C@H]2O)[C@H]2O[C@@H](n3ccc(=O)[nH]c3=O)[C@H](O)[C@@H]2O)cc1	–	water	–	–	–	110 µg/mL
CC12C(=O)C(C)(C(c3ccccc3)=C1c1ccccc1)C1(Br)C(=O)N(CCC(=O)NCCN)C(=O)C21 (centres unmarked)	HPLC	water	–	–	20 °C	3200 µg/mL
C(#Cc1cncc(OC[C@@H]2CCN2)c1)c1ccccc1	–	aqueous buffer	24 h	pH 6.8	–	604 µg/mL
C[n+]1ccc(-c2cc[n+](C)cc2)cc1	absorbance	water	–	pH 7	–	2690 mM
O=c1c2ccccc2[se]n1CCn1[se]c2ccccc2c1=O	HPLC	water	24 h	–	25 °C	2 to 3 µg/mL
CC(C)[C@H](NC(=O)[C@H]1NC(=O)[C@H](CO)NC(=O)[C@H](CC(N)=O)NC(=O)[C@@H](N)Cc2c[nH]c3cc(ccc23)C1C(N)=O)C(=O)N[C@H]1Cc2cn(cn2)C(c2ccc(O)cc2)[C@@H](C(=O)N[C@@H](CCCNC(=N)N)C(=O)N[C@@H](Cc2ccccc2)C(=O)O)NC(=O)[C@H](CO)NC1=O (some centres unmarked)	–	water	–	–	–	> 200000 µg/mL
C[C@]12C(=O)[C@](C)(C(c3ccccc3)=C1c1ccccc1)C1(Br)C(=O)N(CCN)C(=O)C12 (some centres unmarked)	HPLC	water	–	–	20 °C	10800 µg/mL
Nc1cnc(Cl)cc1NC(=O)Nc1cc(C(F)F)ns1	HPLC	PBS	24 h	pH 7.4	–	≥ 0.1 mM
CC(C)(C)c1ccc(COc2cc3c(=O)c(C(=O)NCCNCCO)cn(Cc4ccccc4)c3cc2Cl)cc1	shake flask	PBS	24 h	pH 6.5	25 °C	< 0.005 mM

Some of these lines once more:
Structure (SMILES)	method	medium	time	pH	temperature	solubility
O=P([O-])([O-])Oc1ccc(-c2cc(=S)ss2)cc1.[Na+].[Na+]	HPLC	water	1 h	–	25 °C	2080 µg/mL
